Results gathered from unrelated publications.
A part holds a random share of what one study measured. Values joined by “and” are separate records of one study, mostly repeats; a detail may differ.
UniProt P10721, sequence (whole entry, unmodified, looked up): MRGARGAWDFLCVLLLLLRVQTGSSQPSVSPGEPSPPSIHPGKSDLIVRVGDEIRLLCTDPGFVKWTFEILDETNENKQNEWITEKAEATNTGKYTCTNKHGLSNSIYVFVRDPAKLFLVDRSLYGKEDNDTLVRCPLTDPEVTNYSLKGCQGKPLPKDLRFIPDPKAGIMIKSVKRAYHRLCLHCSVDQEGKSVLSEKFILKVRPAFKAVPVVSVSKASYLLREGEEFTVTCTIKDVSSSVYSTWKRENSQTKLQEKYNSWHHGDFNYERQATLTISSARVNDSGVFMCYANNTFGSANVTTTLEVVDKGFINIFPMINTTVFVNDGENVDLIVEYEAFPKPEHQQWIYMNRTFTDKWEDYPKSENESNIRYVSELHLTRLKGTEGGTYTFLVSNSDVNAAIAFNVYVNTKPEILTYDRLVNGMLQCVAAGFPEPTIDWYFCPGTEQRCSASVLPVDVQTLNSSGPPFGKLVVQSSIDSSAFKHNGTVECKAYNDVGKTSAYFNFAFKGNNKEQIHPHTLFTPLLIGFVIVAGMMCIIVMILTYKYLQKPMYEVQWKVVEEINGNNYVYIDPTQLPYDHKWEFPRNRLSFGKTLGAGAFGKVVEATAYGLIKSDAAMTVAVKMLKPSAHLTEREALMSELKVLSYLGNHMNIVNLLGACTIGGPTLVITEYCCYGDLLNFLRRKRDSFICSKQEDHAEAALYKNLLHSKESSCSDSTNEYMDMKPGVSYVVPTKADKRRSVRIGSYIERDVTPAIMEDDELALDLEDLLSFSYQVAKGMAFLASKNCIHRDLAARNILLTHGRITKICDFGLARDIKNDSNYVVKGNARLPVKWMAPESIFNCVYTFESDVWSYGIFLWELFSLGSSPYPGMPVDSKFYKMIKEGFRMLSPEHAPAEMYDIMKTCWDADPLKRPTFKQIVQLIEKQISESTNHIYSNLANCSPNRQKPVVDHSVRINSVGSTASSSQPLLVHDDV
UniProt Q9Y616, sequence (whole entry, looked up): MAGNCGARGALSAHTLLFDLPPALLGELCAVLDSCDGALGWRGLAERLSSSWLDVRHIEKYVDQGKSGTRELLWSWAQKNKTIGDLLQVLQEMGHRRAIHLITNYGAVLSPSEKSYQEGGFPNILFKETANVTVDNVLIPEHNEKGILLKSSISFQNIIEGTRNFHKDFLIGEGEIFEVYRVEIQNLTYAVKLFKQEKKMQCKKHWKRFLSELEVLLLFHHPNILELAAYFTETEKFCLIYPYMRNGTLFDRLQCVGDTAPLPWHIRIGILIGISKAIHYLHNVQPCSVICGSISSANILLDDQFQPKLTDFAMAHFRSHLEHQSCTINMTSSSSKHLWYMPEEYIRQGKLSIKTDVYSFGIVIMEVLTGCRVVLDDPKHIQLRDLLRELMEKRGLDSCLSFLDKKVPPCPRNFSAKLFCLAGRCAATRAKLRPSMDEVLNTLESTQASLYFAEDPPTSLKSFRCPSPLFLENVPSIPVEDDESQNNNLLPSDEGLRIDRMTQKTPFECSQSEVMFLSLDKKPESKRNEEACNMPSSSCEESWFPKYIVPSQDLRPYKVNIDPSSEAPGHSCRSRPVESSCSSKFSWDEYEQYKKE
UniProt P30291, sequence (whole entry, looked up): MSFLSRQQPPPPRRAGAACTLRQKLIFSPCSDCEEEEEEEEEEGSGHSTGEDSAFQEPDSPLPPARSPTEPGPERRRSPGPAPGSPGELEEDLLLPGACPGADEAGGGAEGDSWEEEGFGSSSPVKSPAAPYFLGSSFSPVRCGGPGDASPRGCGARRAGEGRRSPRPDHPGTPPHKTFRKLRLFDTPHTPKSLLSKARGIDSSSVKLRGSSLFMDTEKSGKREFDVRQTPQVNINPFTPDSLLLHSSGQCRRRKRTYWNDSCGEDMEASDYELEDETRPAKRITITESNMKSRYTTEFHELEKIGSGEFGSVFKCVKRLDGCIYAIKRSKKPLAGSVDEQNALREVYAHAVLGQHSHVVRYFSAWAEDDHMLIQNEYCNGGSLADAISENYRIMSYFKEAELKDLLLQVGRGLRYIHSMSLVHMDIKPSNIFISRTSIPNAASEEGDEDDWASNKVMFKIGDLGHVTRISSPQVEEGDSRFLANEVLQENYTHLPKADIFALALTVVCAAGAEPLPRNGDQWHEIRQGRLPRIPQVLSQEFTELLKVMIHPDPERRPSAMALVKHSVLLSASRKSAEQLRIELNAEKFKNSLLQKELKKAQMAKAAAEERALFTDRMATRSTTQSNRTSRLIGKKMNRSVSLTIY
UniProt O15146, sequence (whole entry, looked up): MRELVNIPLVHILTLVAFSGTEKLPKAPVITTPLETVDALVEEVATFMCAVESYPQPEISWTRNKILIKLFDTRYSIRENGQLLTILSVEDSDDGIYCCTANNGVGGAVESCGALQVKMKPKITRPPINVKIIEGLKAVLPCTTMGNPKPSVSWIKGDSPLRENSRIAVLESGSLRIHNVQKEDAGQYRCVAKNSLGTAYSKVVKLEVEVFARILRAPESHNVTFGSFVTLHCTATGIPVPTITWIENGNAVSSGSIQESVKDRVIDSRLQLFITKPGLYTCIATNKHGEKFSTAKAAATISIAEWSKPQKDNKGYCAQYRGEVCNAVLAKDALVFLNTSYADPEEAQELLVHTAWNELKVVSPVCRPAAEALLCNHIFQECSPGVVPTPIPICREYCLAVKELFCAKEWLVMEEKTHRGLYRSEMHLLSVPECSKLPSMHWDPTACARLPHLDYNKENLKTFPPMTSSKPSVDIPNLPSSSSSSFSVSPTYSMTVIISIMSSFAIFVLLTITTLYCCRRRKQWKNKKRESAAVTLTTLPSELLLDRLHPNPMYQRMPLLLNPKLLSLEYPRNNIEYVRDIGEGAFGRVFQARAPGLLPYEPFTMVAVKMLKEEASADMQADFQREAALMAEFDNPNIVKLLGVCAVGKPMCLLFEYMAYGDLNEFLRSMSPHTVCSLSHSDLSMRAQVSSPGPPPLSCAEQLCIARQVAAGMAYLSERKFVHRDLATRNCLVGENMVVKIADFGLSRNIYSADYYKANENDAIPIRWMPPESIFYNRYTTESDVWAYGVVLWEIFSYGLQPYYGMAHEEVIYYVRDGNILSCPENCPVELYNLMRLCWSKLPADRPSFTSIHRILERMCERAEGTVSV

Sample 1
SMILES: CNC(=O)c1ccc(Nc2ncc(C(F)(F)F)c(NCc3nccnc3N(C)S(C)(=O)=O)n2)cc1
Concentration: 0.1 µM
Measurement: remaining binding
target = Wee1-like protein kinase (WEE1, Homo sapiens, UniProt P30291); effect on = cell-free assay; method = competition with immobilised ligand; value = 95%
target = Receptor-type tyrosine-protein kinase FLT3 (FLT3, Homo sapiens, UniProt P36888, F691L/ITD); effect on = cell-free assay; method = competition with immobilised ligand; value = 9%
target = Casein kinase II subunit alpha (CSNK2A1, Homo sapiens, UniProt P68400); effect on = cell-free assay; method = competition with immobilised ligand; value = 61%
target = Tyrosine-protein kinase ABL1, phosphorylated (ABL1, Homo sapiens, UniProt P00519, E255K); effect on = binding; method = competition with immobilised ligand; value = 100%
target = SRSF protein kinase 3 (SRPK3, Homo sapiens, UniProt Q9UPE1); effect on = cell-free assay; method = competition with immobilised ligand; value = 100%
target = Mast/stem cell growth factor receptor Kit (KIT, Homo sapiens, UniProt P10721, D816V); effect on = cell-free assay; method = competition with immobilised ligand; value = 80%
target = Interleukin-1 receptor-associated kinase 3 (IRAK3, Homo sapiens, UniProt Q9Y616); effect on = cell-free assay; method = competition with immobilised ligand; value = 70%
target = Ribosomal protein S6 kinase alpha-5, C-terminal kinase domain (RPS6KA5, Homo sapiens, UniProt O75582); effect on = cell-free assay; method = competition with immobilised ligand; value = 80%
target = Tyrosine-protein kinase ABL1, phosphorylated (ABL1, Homo sapiens, UniProt P00519, F317I); effect on = binding; value = 100%
target = Fibroblast growth factor receptor 2 (FGFR2, Homo sapiens, UniProt P21802); effect on = cell-free assay; method = competition with immobilised ligand; value = 100%
target = Cyclin-dependent kinase-like 5 (CDKL5, Homo sapiens, UniProt O76039); effect on = cell-free assay; method = competition with immobilised ligand; value = 100%
target = Casein kinase I isoform delta (CSNK1D, Homo sapiens, UniProt P48730); effect on = cell-free assay; method = competition with immobilised ligand; value = 98%
target = Tyrosine-protein kinase ABL1, non-phosphorylated (ABL1, Homo sapiens, UniProt P00519, T315I); effect on = cell-free assay; method = competition with immobilised ligand; value = 93%
target = Maternal embryonic leucine zipper kinase (MELK, Homo sapiens, UniProt Q14680); effect on = cell-free assay; method = competition with immobilised ligand; value = 23%
target = Muscle, skeletal receptor tyrosine-protein kinase (MUSK, Homo sapiens, UniProt O15146); effect on = cell-free assay; method = competition with immobilised ligand; value = 100%
target = MAP kinase-activated protein kinase 5 (MAPKAPK5, Homo sapiens, UniProt Q8IW41); effect on = cell-free assay; method = competition with immobilised ligand; value = 76%
target = Tyrosine-protein kinase ITK/TSK (ITK, Homo sapiens, UniProt Q08881); effect on = cell-free assay; method = competition with immobilised ligand; value = 80%
target = Myosin-IIIb (MYO3B, Homo sapiens, UniProt Q8WXR4); effect on = binding; method = competition with immobilised ligand; value = 100%
target = ALK tyrosine kinase receptor (ALK, Homo sapiens, UniProt Q9UM73, L1196M); effect on = cell-free assay; method = competition with immobilised ligand; value = 85%
target = Rhodopsin kinase GRK1 (GRK1, Homo sapiens, UniProt Q15835); effect on = cell-free assay; method = competition with immobilised ligand; value = 99%
target = Dual specificity mitogen-activated protein kinase kinase 7 (MAP2K7, Homo sapiens, UniProt O14733); effect on = cell-free assay; method = competition with immobilised ligand; value = 97%
target = Discoidin domain-containing receptor 2 (DDR2, Homo sapiens, UniProt Q16832); effect on = cell-free assay; method = competition with immobilised ligand; value = 100%
target = Tyrosine-protein kinase Fer (FER, Homo sapiens, UniProt P16591); effect on = cell-free assay; method = competition with immobilised ligand; value = 83%
target = Tyrosine-protein kinase ABL1, phosphorylated (ABL1, Homo sapiens, UniProt P00519, T315I); effect on = cell-free assay; method = competition with immobilised ligand; value = 45%
target = Tyrosine-protein kinase Srms (SRMS, Homo sapiens, UniProt Q9H3Y6); effect on = cell-free assay; method = competition with immobilised ligand; value = 96%

Sample 2
Target: Cyclin-dependent kinase 6, with cyclin D1 (CDK6, Homo sapiens, UniProt Q00534)
UniProt Q00534, sequence (whole entry, looked up): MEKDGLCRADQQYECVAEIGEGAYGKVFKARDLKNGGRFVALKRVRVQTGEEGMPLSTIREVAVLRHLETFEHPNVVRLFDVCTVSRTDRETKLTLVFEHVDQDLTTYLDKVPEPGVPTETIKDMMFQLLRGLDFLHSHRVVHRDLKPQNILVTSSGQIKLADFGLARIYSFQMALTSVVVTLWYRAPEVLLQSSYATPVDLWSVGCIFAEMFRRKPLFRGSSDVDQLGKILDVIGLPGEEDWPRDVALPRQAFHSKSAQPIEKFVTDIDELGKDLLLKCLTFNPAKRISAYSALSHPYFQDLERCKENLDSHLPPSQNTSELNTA
Effect on: enzyme activity
Mode: inhibitor
Concentration: 0.5 µM
Reference: control
Measurement: remaining activity
SMILES = CCN(CC)CCNC(=O)c1c(C)[nH]c(/C=C2\C(=O)Nc3ccc(F)cc32)c1C; value = 50.5%
SMILES = Cc1nc2cc3nc(-c4cccs4)cnc3cc2n1C; value = 99.3%
SMILES = c1ccc(-c2cnc(Nc3ccc(OCCN4CCCC4)cc3)s2)cc1; value = 40.3%
SMILES = CCN(CC)C(=O)c1ccc(Nc2nc(OCC3CCCCC3)c3[nH]cnc3n2)cc1; value = 52.9%
SMILES = Cn1nc2c3c(cccc31)C(=O)c1ccccc1-2; value = 88%
SMILES = c1ccc(-c2[nH]ncc2-c2ccnc3ccccc23)nc1; value = 91.1%
SMILES = Cc1cc2ncc(-c3ccccc3)nc2cc1C; value = 87.1%
SMILES = CCN(CC)CCNC(=O)c1c(C)[nH]c(/C=C2\C(=O)Nc3ccc(Cl)cc32)c1C; value = 27.8%
SMILES = CN(C)C[C@H]1CCn2c(c(C3=C(c4cn(C)c5ccccc45)C(=O)NC3=O)c3ccccc32)C1; value = 70.5%
SMILES = N#Cc1c(NC(=O)c2cccc3ccccc23)sc2c1CCCC2; value = 94%
SMILES = O=C(Nc1cccc(Nc2nccc(Nc3cccc(C(F)(F)F)c3)n2)c1)C1CC1; value = 93.4%
SMILES = N#C/C(=C\c1ccc(O)c(O)c1)C(=O)NCc1ccccc1; value = 95.6%
SMILES = O=C1C(Cl)=C(N2C(=O)CCC2=O)C(=O)c2ccccc21; value = 100%
SMILES = O=C(NC(NC(=S)Nc1ccc(F)c([N+](=O)[O-])c1)C(Cl)(Cl)Cl)C(c1ccccc1)c1ccccc1 (stereo not shown); value = 101%
SMILES = Ic1cccc(CSc2nnc(-c3ccncc3)o2)c1; value = 97.5%
SMILES = O=c1cc(-c2cccc3c2Sc2ccccc2S3)oc(N2CCOCC2)c1; value = 98.1%
SMILES = Nc1cccc(-c2cc3c(Oc4cccc(O)c4)ncnc3[nH]2)c1; value = 82.2%
SMILES = COc1cc2ncnc(Nc3cccc(Cl)c3)c2cc1OC; value = 92.5%
SMILES = CCOc1nc(NC(=O)Cc2cc(OC)ccc2OC)cc(N)c1C#N; value = 95.2%
SMILES = COc1cc2ncnc(Nc3ccc(O)c(Br)c3)c2cc1OC; value = 95.4%
SMILES = C[C@@H]1CCN(C(=O)CC#N)C[C@@H]1N(C)c1ncnc2[nH]ccc12; value = 96.5%
SMILES = Cc1cn(-c2cc(NC(=O)c3ccc(C)c(Nc4nccc(-c5cccnc5)n4)c3)cc(C(F)(F)F)c2)cn1; value = 97.1%
SMILES = CN([C@@H](Cc1ccc(OS(=O)(=O)c2cccc3cnccc23)cc1)C(=O)N1CCN(c2ccccc2)CC1)S(=O)(=O)c1cccc2cnccc12; value = 91.6%
SMILES = O=C1c2ccccc2-c2n[nH]c3cccc1c23; value = 88.6%
SMILES = COc1cc2c(cc1OC)-c1[nH]nc(Nc3cccc(F)c3)c1C2; value = 92.9%

Sample 3
Target: Eukaryotic initiation factor 4A-III (Homo sapiens, UniProt P38919)
UniProt P38919, sequence (whole entry, looked up): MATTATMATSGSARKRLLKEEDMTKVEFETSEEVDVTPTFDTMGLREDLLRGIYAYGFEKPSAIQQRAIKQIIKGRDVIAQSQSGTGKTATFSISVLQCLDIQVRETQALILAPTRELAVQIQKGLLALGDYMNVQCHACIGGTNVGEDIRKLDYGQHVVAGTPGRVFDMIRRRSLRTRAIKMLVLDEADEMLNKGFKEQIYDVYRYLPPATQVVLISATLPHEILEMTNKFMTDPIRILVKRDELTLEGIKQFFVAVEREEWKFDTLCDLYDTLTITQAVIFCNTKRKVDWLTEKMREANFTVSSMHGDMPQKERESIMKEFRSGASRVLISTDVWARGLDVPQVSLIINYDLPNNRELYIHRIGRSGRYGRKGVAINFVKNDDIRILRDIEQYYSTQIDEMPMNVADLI
Effect on: RNA clamping
Method: fluorescence polarization
Concentration: concentration not given
Added: FAM-labelled poly r(AG)8 RNA
Measurement: fluorescence polarization change
SMILES = CCCC1=N[C@@]2(O)[C@H](C(=O)OC)[C@@H](c3ccccc3)[C@]3(c4ccc(OC)cc4)Oc4cc(OC)cc(OC)c4[C@]23N1; value = 31.5 mP
SMILES = COc1ccc([C@@]23Oc4cc(OC)c(Cl)c(OC)c4[C@]2(O)c2nc4n(c(=O)c2[C@H]3c2ccccc2)CCC4)cc1; value = 13.2 mP
SMILES = CN[C@@]12C(=O)[C@H](C(=O)OC)[C@@H](c3ccccc3)[C@]1(c1ccc(OC)cc1)Oc1cc(OC)cc(OC)c12; value = 4.1 mP
SMILES = COc1ccc([C@@]23Oc4cc(OC)cc(OC)c4[C@]2(O)c2nc(-c4ccc(C)cc4)[nH]c(=O)c2[C@H]3c2ccccc2)cc1; value = 5.4 mP and 20.7 mP
SMILES = CCCc1ccc(C(=O)[C@H]2[C@@H](O)[C@@]3(O)c4c(OC)cc(OC)cc4O[C@@]3(c3ccc(OC)cc3)[C@@H]2c2ccccc2)o1; value = 6.4 mP
SMILES = COC(=O)[C@@H]1[C@@H](c2ccccc2)[C@]2(c3ccc(OC)cc3)Oc3cc(OC)cc(OC)c3[C@@]23N2CCCCC2=N[C@@]13O; value = 38.1 mP
SMILES = COc1ccc([C@@]23Oc4cc(O)cc(OC)c4[C@]2(O)[C@H](O)[C@H](C(=O)c2ccco2)[C@H]3c2ccccc2)cc1; value = 3.5 mP
SMILES = COC(=O)[C@H]1[C@@H](O)[C@@]2(O)c3c(OC)cc(O)cc3O[C@@]2(c2ccc(Br)cc2)[C@@H]1c1ccccc1; value = 7.3 mP and 33 mP
SMILES = C=CCN1c2cc(OC)cc(OC)c2[C@]2(O)[C@H](O)[C@H](C(=O)OC)[C@@H](c3ccccc3)[C@]12c1ccc(OC)cc1; value = -0.5 mP
SMILES = COc1ccc([C@@]23Oc4cc(OC)cc(OC)c4[C@]2(O)C2=NNC(=O)C2=C3c2ccccc2)cc1; value = -2.8 mP
SMILES = CNCCOc1ccc2c(c1)O[C@@]1(c3ccc(Cl)cc3)[C@H](c3ccccc3)C[C@H](O)[C@@]21O; value = 108 mP
SMILES = COc1ccc([C@@]23Oc4cc(OC)cc(OC)c4[C@]2(O)c2nc(C4CC4)[nH]c(=O)c2[C@H]3c2ccccc2)cc1; value = 25.2 mP and 34.8 mP and 27.8 mP
SMILES = COc1ccc([C@@]23Oc4cc(OC)cc(OC)c4[C@]2(O)[C@@H]2OC(=O)[C@@H]2[C@H]3c2ccccc2)cc1; value = 25.1 mP

Mixed results
Structure (SMILES) = COc1ccc2[nH]c3c4[nH]c5ccc(OC)cc5c4c4c(c3c2c1)C(=O)NC4=O; target = Serine/threonine-protein kinase TBK1 (TBK1, Homo sapiens, UniProt Q9UHD2); effect on = enzyme activity; concentration = 1 µM; measurement = remaining activity; value = 59%
